# Published values pooled from the literature.
# Each numbered part is a random draw from the data of one study; scales do not carry over between parts.

# Block 1 — method: protein-binding microarray; form: double-stranded DNA, one strand shown; matrix: in vitro; concentration: 250 nM; notes: 60-bp whole probe; with: salmon DNA 0.4 mg/ml; baseline: random background probes; reading: higher = stronger binding; all sequences stand within: GCCTAGCAC … GTCTTGATTCGCTTGACGCTGCTG
# Target: Interferon regulatory factor 7, full length, phosphomimetic (IRF7, Homo sapiens, UniProt Q92985, residues 1-503, S101K/S471D/S472D/S475D/S476D/S477D/S483D/S484D/S487D)
# UniProt Q92985, sequence (whole entry, unmodified, looked up): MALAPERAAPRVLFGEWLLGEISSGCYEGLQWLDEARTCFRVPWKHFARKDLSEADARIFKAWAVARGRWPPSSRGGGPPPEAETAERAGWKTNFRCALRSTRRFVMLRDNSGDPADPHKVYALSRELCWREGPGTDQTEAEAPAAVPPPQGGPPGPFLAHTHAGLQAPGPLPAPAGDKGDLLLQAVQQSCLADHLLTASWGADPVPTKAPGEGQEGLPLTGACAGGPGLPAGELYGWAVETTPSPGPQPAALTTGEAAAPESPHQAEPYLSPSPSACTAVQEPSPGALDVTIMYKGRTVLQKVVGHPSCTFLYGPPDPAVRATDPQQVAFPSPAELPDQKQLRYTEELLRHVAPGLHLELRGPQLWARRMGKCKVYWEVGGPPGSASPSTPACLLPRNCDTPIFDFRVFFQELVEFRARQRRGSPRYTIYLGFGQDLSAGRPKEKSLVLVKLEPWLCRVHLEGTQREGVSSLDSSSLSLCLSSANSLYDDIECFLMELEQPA
Sequence,log fluorescence [z-score]
GAGGGTCTCCTACTGCTGACGTGCTAG,-0.427
GACGGCATCGGGACTGGGGACGTGCTA,-0.891
TCAACACTCGGTTTCCAACTGTGCTAG,2.58
CTTGATTTTGGTCTTTCTGTGTGCTAG,-0.114
CTTGCTCTTGTTTTCACAGGGTGCTAG,0.69
AAACAAATAAGCCTTACTTGGTGCTAG,0.223
CTAGTTGTACTTTCTATCTCTGTGCTA,1.83
TTAGGTCCCGGTTTCGGTTAGTGCTAG,10.2
GACGGTATCGGGACTGGAGACGTGCTA,-0.246
GACGGTTTCCTTATCCTGCCGTGCTAG,2.8
GACGTTATCCTTATCCTGACGTGCTAG,0.615
TTAGATATCAGTCTAGATTAGTGCTAG,-0.204
TCACCCATGAGTCTCAAACTGTGCTAG,0.168
GACGGACTGGGGTTCCGGGACGTGCTA,-0.562
GACGGTAGCGGTATCGGGACGTGCTAG,-0.208
TTAGAACTCAGACTGGATTAGTGCTAG,-0.264
ACTCAGCTCCTCTTCCAGGCGTGCTAG,-0.532
TTAGAAGTGGGGTATCGATTAGTGCTA,-0.114
GACGATATCAGACTTGAGACGTGCTAG,-0.498
GACGATATCGGGAGTGGAGACGTGCTA,-0.52
GACGGTTTCCTACTGCTTACGTGCTAG,1.38
TGTTACATTTATATCTTTGCGTGCTAG,0.603
TTAGGACTGGGTTTCTGTTAGTGCTAG,2.32
TTCCTTTACTTTCTTTTTTTGTGCTAG,2.28
GCTTTTATCCCTGACAGAAGGTGCTAG,1.85

# Block 2 — method: RNA Bind-n-Seq; form: RNA; matrix: in vitro; concentration: 365 nM; baseline: no-protein control; reading: higher = stronger binding
# Target: RNA binding protein fox-1 homolog 2, RRM domain, GST-SBP tag (RBFOX2, Homo sapiens, UniProt O43251-10, residues 100-194)
# Notes: natural RNA segment, single round, ends assumed
# All sequences stand within: GGGAGUUCUACAGUCCGACGAUC … UGGAAUUCUCGGGUGCCAA
# Residues (chain): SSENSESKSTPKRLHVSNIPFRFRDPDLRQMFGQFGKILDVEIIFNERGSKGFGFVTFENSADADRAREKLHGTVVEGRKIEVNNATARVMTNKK
Sequence,RBNS enrichment (R)
AUGUCUAGAAUGGGCCAGCCACCUUGCAGUAAAAUCAAUGAGUUCUGAAGCAACCUUCAAUUUUCAUAAGCCAAGUCUUGGGUCCAGGGAACUCCACAGUGCUCCCACCC,0.376
CACUUCCCUCUGUCCUAGUUCUCUUUGUCCAAUCAGAUGGCAAGGGCAGUGCGUGGAAAGGCCGGGGAGGUGCAGAAACCAGAGCCCAGGGCAAUGGUGUCUGUCCAGCC,0.231
UGUGCCCCACCCCUGGACAUAUACUGCUAAGGACAUCUCAAUACUAGACUCAGUCAGGAGUGGUGGUGACACUUGUAAUCCUAGACAGGCAAAAGGGUCACCAGAGGCUU,0.37
AGCAUUUCAGCUGGGAGAUCUCCCUCUGGCCACCAGGACUCUGGCUACUGUUAAAAUCCUGAUGUUUCUGUGGAAUCCUCAGUGUUUAAUCCCACUCAAUAGUAUCAUUA,0.455
GCCUGUUAGAAAUUAAAAAAUACAGUACAGCUUGCCGUUCCUCUGGUUUGUGAAGUUUCACUCGUUGCCUAAAAUGCCCGAUGCCUCGUCUCCAGACCUUGCUGCCCUUG,0.502
GUUCCCAUGGAGCUCAGGUCAGGCUCUGUAUUCAGACCGAGGGUUUGUGUGAGGCUCAGAGCAAAUGAACAAGUGCCAUUCAAGGGUUAGAAACUGCUCAGCCACAGGGU,0.561
UCUCUGGCCUCCCCCACAAGAUGCCAGUAGCAAUCUUCUUCCCGAAGCUGUGACAAUCAGAAAUGUCUCUUAGACAUUUCCAAAUGUCCCCUGGGGCAUGGGAGGGUUUC,0.153
UUUUUUAUAAGCAAAAUUUUGUAUGUUAUUGUAUAGUAUUUAUUUGAUCUUAUUUACUUUAUGCUACCUCUCCCACACUGGUUUUAUUUGUAAUUUGCAUUUAUAUACUC,1.02
UGUGCCUUACUCAUAGGGCUCAGGCUCCUGGCCUCUGGCUUCCUGCUUCUGGAUUCUCACCUUCACAGGGAGUUUCUUCCCGCCUCGGCCUUCUGGACAUGUCCUCUGUC,0.208
UUUGGAUGUGUGCUUUAAUUCAGCUUUAGAAAUUAAUACCACUACCCGUGAAUUAUAUGGCCUGACAAUAUGAAUUAGGUGUACUGUACUGAAGAACAGUACUCCACAAA,0.636
CCUACUGAGAACUUCCUGUUCCAGGUUUUAGAAUUUUCUUAUUGUCGUUAGGACCAAAUGUAGACUGGCUCAGGACCUGUAAGGAAAUCACAGGUUCAGAGAUCUCUUAG,1.23
GCUUUGGGCUUUCUCCUUCUGUGGCCCCGGAGGAAGGAGAGACUGAGGCAAGGCAAAGUGAUAGUACACGGAAGCAGAACCGGAAACACCCAGGAACUGUUCAGAAAUCU,0.675

# Block 3 — method: RNA Bind-n-Seq; form: RNA; matrix: in vitro; concentration: 200 nM; notes: whole 134-nt RNA, ends assumed; with: 150 mM LiCl; baseline: input library; reading: higher = stronger binding; each molecule: 7-deaza-guanosine replaces G
# Target: Ras GTPase-activating protein-binding protein 1, full length (G3BP1, Homo sapiens, UniProt Q13283)
# UniProt Q13283, sequence (whole entry, looked up): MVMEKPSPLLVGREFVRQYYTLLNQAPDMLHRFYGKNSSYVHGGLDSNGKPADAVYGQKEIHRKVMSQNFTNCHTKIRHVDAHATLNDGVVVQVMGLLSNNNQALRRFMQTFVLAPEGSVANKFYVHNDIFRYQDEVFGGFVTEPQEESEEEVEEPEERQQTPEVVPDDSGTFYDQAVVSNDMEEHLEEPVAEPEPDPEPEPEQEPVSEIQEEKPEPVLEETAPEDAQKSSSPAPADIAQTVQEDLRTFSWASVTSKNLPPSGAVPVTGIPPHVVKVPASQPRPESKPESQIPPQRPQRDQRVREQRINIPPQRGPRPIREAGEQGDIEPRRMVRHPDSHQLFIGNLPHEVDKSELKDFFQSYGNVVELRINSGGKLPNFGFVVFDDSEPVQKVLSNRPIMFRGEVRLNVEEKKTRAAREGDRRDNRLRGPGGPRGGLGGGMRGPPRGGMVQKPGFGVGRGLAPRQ
# All sequences stand within: GGGAGUUCUACAGUCCGACGAUC … UGGAAUUCUCGGGUGUCAAGG
Sequence,log2 enrichment
CCUGUGCUACACAUCGUAUGUACCGAAUCGGGGAAAAAAAGGGAAAAAAAGGAAAAAAAGGAAAGUAUUAUGUUACGCCGUUCGGAUCUG,0.329
UGUGCUACACAUCGUAUGUACCGAAUCGGGGAAAAAAAGGGGUUUUUUUGGGGAAAAAGGGGAAAGUAUUAUGUUACGCCGUUCGGAUCU,-1.13
UGGGAGGUGGAUUUUGUUUAUUUUUUUAGCUCAUUUCCAGGGGUGGGAAUUUUUUUUUAAUAUGUGCCAUGAAUAAAGUUGUUUUUGAAA,0.0363
AGUGACCAUUUUAGUUAAAUUUUGUUCCUCUUCCCCCUUUUCACUUUCCUGGAAGAUCGAUGUCCCGAUCAGGAAGGUAGAGAGUUUUCC,0.774
UCCUGUGCUACACAUCGUAUGUACCGAAUCGGGGUUUUUGGGGUUUUUUUGGGGAGGGGAAAGUAUUAUGUUACGCCGUUCGGAUCUGCA,1.03
UGGGAGGUGGAUUUUGUUUAUUUUUUUAGCUCAUUUCCAGGGGUGGGAAUUUUUUUUAAAUAUGUGUCAUGAAUAAAGUUGUUUUUGAAA,-0.489
CUCAAGUCCUGUGCUACACAUCGUAUGUACCGAAUCGGGAGGGGAGGGGAGGGAAAGUAUUAUGUUACGCCGUUCGGAUCUGCACUUCCA,0.0577
UAGGGUUCAGGAUAAGUUUGAGGUGCUGAAUUACACAAGCAUUCCUAUCUUUCUCCCGGAAGUCACCAUUGGAGCUCAUCAGACUGACCG,-0.349
UGGGAGGUGGAUUUUGUUUAUUUUUUUAGCUCAUUUCCAGGGGUGGGAAUUUUUUUUUAAUAUAUGUCAUGAAUAAAGUUGUUUUUGAAA,-0.122
AAGUCCUGUGCUACACAUCGUAUGUACCGAAUCGGGCCCGGGGCCCGGGGCCCGGGGAAAGUAUUAUGUUACGCCGUUCGGAUCUGCACU,-0.827
CCUGUGCUACACAUCGUAUGUACCGAAUCGGUUUUUUUGGGUUUUUUUGGUUUUUUUGGGGAAAGUAUUAUGUUACGCCGUUCGGAUCUG,0.486

# Block 4 — method: protein binding microarray; form: double-stranded DNA, one strand shown; matrix: in vitro; concentration: not given; baseline: not given; reading: higher = stronger binding
# Target: Histone acetyltransferase KAT6A, winged helix 2, GST fusion (KAT6A, Homo sapiens, UniProt Q92794, residues 85-181)
# Notes: 8-mer, flanks averaged, mean of 2 arrays, mostly near background
# Construct (chain): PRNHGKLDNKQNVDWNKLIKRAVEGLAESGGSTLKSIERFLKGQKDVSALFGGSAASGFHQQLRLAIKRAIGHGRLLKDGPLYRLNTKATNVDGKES
Sequence,E-score
CGCCCGGA,0.143
TAAGTCGA,-0.172
CCGTTTTA,-0.0179
AGCATGTC,-0.0305
ATCTTTAG,0.0597
ATAGGTCA,-0.115
CCTCATTC,0.00872
CGGTACTA,-0.196
GGTAGACC,-0.0433
GTGTATTA,0.00881
AATGATAA,0.0667
ATGTCAAT,-0.0147
ACGTGTAA,-0.0658
GCTCCGTA,0.0372
GTGTGGCA,0.0223
AATTGACG,-0.114
GCTATCCC,0.0329
TACAGCCA,0.0639
CGGAACAA,0.152

# For quick reference, copied from above (block 3):
Sequence,log2 enrichment
UGGGAGGUGGAUUUUGUUUAUUUUUUUAGCUCAUUUCCAGGGGUGGGAAUUUUUUUUUAAUAUGUGCCAUGAAUAAAGUUGUUUUUGAAA,0.0363
AGUGACCAUUUUAGUUAAAUUUUGUUCCUCUUCCCCCUUUUCACUUUCCUGGAAGAUCGAUGUCCCGAUCAGGAAGGUAGAGAGUUUUCC,0.774
UCCUGUGCUACACAUCGUAUGUACCGAAUCGGGGUUUUUGGGGUUUUUUUGGGGAGGGGAAAGUAUUAUGUUACGCCGUUCGGAUCUGCA,1.03
UGGGAGGUGGAUUUUGUUUAUUUUUUUAGCUCAUUUCCAGGGGUGGGAAUUUUUUUUAAAUAUGUGUCAUGAAUAAAGUUGUUUUUGAAA,-0.489
CUCAAGUCCUGUGCUACACAUCGUAUGUACCGAAUCGGGAGGGGAGGGGAGGGAAAGUAUUAUGUUACGCCGUUCGGAUCUGCACUUCCA,0.0577
UAGGGUUCAGGAUAAGUUUGAGGUGCUGAAUUACACAAGCAUUCCUAUCUUUCUCCCGGAAGUCACCAUUGGAGCUCAUCAGACUGACCG,-0.349
UGGGAGGUGGAUUUUGUUUAUUUUUUUAGCUCAUUUCCAGGGGUGGGAAUUUUUUUUUAAUAUAUGUCAUGAAUAAAGUUGUUUUUGAAA,-0.122
AAGUCCUGUGCUACACAUCGUAUGUACCGAAUCGGGCCCGGGGCCCGGGGCCCGGGGAAAGUAUUAUGUUACGCCGUUCGGAUCUGCACU,-0.827
